# Experimental data from different studies.
# Each numbered part is a random draw from the data of one study; scales do not carry over between parts. Changes are numbered by the printed parent chain.

# Series 1 — technique: protein-binding microarray; molecule type: double-stranded DNA, one strand shown; matrix: in vitro; concentration: 250 nM; notes: 60-bp whole probe; together with: salmon DNA 0.4 mg/ml; reference: random background probes; reading: higher = stronger binding; shared flanks, not repeated: GCCTAGCAC … GTCTTGATTCGCTTGACGCTGCTG
# Target: Interferon regulatory factor 7, full length, phosphomimetic (IRF7, Homo sapiens, UniProt Q92985, residues 1-503, S101K/S471D/S472D/S475D/S476D/S477D/S483D/S484D/S487D)
# Residues (chain): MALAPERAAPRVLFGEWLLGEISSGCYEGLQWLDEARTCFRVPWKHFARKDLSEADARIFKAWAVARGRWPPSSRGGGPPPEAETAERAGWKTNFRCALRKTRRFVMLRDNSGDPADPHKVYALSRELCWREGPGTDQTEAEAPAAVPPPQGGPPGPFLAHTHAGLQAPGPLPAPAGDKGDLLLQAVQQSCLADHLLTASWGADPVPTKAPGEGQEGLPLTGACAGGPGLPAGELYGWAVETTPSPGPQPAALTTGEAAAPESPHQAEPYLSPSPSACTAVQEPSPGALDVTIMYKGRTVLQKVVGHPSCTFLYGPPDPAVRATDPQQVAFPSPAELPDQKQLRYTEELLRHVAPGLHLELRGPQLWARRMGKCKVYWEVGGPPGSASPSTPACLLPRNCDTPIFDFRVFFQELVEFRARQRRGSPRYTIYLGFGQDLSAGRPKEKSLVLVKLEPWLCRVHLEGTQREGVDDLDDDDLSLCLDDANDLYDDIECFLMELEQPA
Strand,log fluorescence
TTAGATTTCAGTTTCGTTTAGTGCTAG,10 z-score
TATGTTCACTATTTAAGACCGTGCTAG,1.18 z-score
CTGGTCTCCGGTGTTTCCTAGTGCTAG,0.661 z-score
GACGGTCTCCTTATCCTCACGTGCTAG,0.261 z-score
GACGGTATCGGGTGTCGGGACGTGCTA,-0.322 z-score
GATGGTTCCGGTTTCGGGACGTGCTAG,8.1 z-score
TTAGATTTCAGTTCCGCTTAGTGCTAG,1.95 z-score
TTATGTATCCTTTTCCTTTAGTGCTAG,1.33 z-score
CAAGTTTCTCCTTTCGGAATGTGCTAG,4.97 z-score
TTAGGACTGCTTATCCTTGAGTGCTAG,-0.126 z-score
GACGGTTTACTTTTCCTGACGTGCTAG,0.95 z-score
GACGAACTGGACTATCGGGACGTGCTA,-0.652 z-score
TTAGGTTTCGACTCTGGGTTAGTGCTA,8 z-score
TCATGCATCTATCTTAAACTGTGCTAG,-0.132 z-score
GACGATCTTAGTTTCGAGACGTGCTAG,4.82 z-score
TTCAATTCCTGAAATCTCTTTGTGCTA,0.427 z-score
GACGGTGTCGACTATCGGGACGTGCTA,-0.589 z-score
TTAGGTATCAGTTTCGGTTAGTGCTAG,8.37 z-score
GACAGTTTCGGTATCGGGACGTGCTAG,9.8 z-score
TCATATATCTGTGTTATACTGTGCTAG,0.73 z-score

# Series 2 — technique: RNA Bind-n-Seq; molecule type: RNA; matrix: in vitro; concentration: not given; reference: input RNA pool; reading: higher = stronger binding
# Target: RING finger protein unkempt homolog, zinc fingers 1-6, GST-SBP tag (UNK, Homo sapiens, UniProt Q9C0B0, residues 30-357)
# Sequence of UniProt Q9C0B0 (30-357, looked up): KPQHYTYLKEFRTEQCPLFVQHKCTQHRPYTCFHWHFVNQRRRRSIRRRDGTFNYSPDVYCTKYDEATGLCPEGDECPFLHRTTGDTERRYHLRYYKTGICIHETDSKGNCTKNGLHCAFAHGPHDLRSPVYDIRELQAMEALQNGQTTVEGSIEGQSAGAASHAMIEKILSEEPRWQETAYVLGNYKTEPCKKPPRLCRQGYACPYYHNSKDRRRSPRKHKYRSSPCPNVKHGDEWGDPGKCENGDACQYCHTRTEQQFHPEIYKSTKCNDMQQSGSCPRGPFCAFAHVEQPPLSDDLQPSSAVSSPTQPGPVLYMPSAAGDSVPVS
# Notes: RNA with constant flanks, human-mouse chimeric sites, ends assumed
# Shared flanks, not repeated: GGGAGUUCUACAGUCCGACGAUC … CAACAGAGGAUUGAGCAUCA
Strand,bound/input enrichment
CUCAUGGCUGCAGAAACAGGAAGUGGAAAAACUGGUGCAUUUAGUAUUCCAGUUAUCCAGAUAGUGUAUGAAACUCUGAAAGACCAACAGGAAGGAAAAAAAGGAAAAACAACUAUUAAA,0.946 ratio
CUCAGAGAUGUGGCAUAUCAAUAUGUGAAAAAGGGGGCUCGUAUAUUUUUGGAAGGGAAAGUGGACUAUGGCGAGUACAUGGAUAAAAACAAUGUGAGGCGGCAAGCAACAACAAUCAUA,0.48 ratio
GCUCCUCCCCGCUCUGCCCCUGCCUGCCACUGGGCUGGGACCAGAAUCUUAUUUUUUUUUAAAACUCUCAGUGUAACUGUAUCCCGUGACAUUUCAUUUUUUUUAAAUAGUGUAUUUUUU,21.7 ratio
CAGGGCAUCAUCUCUCGUGCUGUUAGACACCUUUUUAAGAGUAUUGAUGAGAAAAAGACCUCAGCGAUUAAAAACGGGCUUCCUGCUCCUGAAUUCAAAGUGAAUGCCCAGUUCCUAGAG,0.243 ratio
UCUUAACUUAUUCAUUUAACUUAUUUUUAUAGCUAGAUAAAUAUUGUUAGUCUUAGACAAUAGCUCACAUUUUUUGAAAAGCAUGCUCUCCCUGUCCAUUUGUCUUAUAACAUGACCCAG,40.7 ratio
CAGCCUCAGAGCCCAGACUUCCUGGAUAUUACCAACCCUAAAGCGGUAUUAGAAAACGCACUUAGGAACUUCGCCUGUCUGACGACUGGAGAUGUGAUUGCUAUCAACUACAAUGAGAAG,0.542 ratio
CUCAGAGAUGUGGCAUAUCAGUAUGUGAAAAAGGGGGCUCGUAUAUUUGUGGAAGGGAAAGUGGACUAUGGUGAAUACAUGGAUAAAAAUAAUGUGAGGCGGCAAGCAACAACAAUCAUA,0.398 ratio
GUACUGCAGCAGCAGGGAAAACUGCAGGAAGCUCUGAUGCAUUAUAAGGAGGCUAUUCGAAUCAGUCCUACAUUUGCUGAUGCCUACUCCAAUAUGGGAAACACUCUAAAGGAGAUGCAG,0.196 ratio
AACAGAUUGUCUUUAAGCAUUCCAAGCGAGAAUGCUGGGGUGAUCAUUGUUGCCCAUAUAUAGUAAUACUGAGCUUUUAAUUAAUUGCAUGUUACAUCUUUCCUUCACUCCAGAAUUGUU,2.34 ratio
AAAGAGAAACUAAAGCAACUAAUAGAGAAGAGGAUUGGGCAAAGAGAUUUCAUAGAGAAACUAGGAUUUAUUAGCAAACAUGAGUUAUAUUCCAGAGGCAUCUCAGAACCCCAGCCAAAC,6.62 ratio
ACAGUUAUAUUGUUGAGGUUUGUAUUUUUGUAUGUUUGUAGUGUCUGCUUGCCUGUGACUUCUGGUAAAAUAAAAUAAGCCUUUGAAAAUAUUUUAGCAUGGUAUUUAACAUUUUCUAAA,2.19 ratio

# Series 3 — target: CCNE1, cyclin fold, Cln2 fusion (human); technique: yeast growth competition, sequencing; matrix: yeast; notes: strong parent motif; reference: not given; reading: higher = stronger binding
# Starting sequence: E2F3 docking peptide (human); PPAKRRLELGESG; partner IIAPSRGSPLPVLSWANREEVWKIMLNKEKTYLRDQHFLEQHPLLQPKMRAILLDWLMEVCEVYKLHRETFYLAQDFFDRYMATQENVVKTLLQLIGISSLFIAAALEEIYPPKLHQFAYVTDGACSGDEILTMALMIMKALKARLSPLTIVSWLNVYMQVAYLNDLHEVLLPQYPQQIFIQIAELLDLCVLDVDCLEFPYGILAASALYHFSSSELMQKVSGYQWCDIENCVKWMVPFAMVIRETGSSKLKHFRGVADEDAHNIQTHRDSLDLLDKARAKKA
Substitution,normalised enrichment score
PPAARRLELGESG [K4A],0.797
PPAKRRLEAGESG [L9A],0.91
PPAKRRLELGASG [E11A],1.08
PPAKRRLALGESG [E8A],0.596
PPAKRRAELGESG [L7A],-0.0485
PPAKRRLELGEAG [S12A],1.43
PPAKRRLEFGESG [L9F],5.39

# Series 4 — technique: RNA Bind-n-Seq; molecule type: RNA; matrix: in vitro; concentration: 365 nM; reference: no-protein control; reading: higher = stronger binding
# Target: RNA binding protein fox-1 homolog 2, RRM domain, GST-SBP tag (RBFOX2, Homo sapiens, UniProt O43251-10, residues 100-194)
# Notes: natural RNA segment, single round, ends assumed
# Shared flanks, not repeated: GGGAGUUCUACAGUCCGACGAUC … UGGAAUUCUCGGGUGCCAA
# Residues (chain): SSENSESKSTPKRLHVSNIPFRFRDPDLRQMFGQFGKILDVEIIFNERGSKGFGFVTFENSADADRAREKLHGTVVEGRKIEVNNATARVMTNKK
Strand,RBNS enrichment (R)
GAGCCUCACCUCUGAGUUCAUUCAUGACAUCGACCGAGAACUGAAGACUAUCCAAGCUGUGCUGACUGUCCCCAAGCUGAAGCUGAGCUUCGAAGGCGAACUUACCAAGU,0.308
CUCAUCUCUCCCAGCAUCCAUAGGAACACACUAACAUUGGGAUGGCAGGCACAUCCUGGUACUGGCACAGACUGAAGAGUCUGUGUUUCUGUACCACUUGAGGUAUAUGU,0.6
GAGUAGAACAUGAACUAGUUAGAGCGAGAGAACCCUUGGUCCUGAAUAGUGGAGUUAUAGAGAAGGGCCAGUCCUAAGAUGGAAGGAGCCCUACAAUCUGACUCCUUCUA,0.982
GCAGAUAACCACUUGUUCUUUACUUUUUACAGGUGUGGGAUCCCGAUCCUGAGCUGUGUCCUCUGUGAGGACUUCCCUCCCAGGCUUCAAUCCAGAUGUUUCGUUUCCAG,0.213
CUGAAUCCAGGGCUUACUAAGUAGGGAAGUCAGUUUACAUAUUUCAGUUUUCCUCUGAUGUUUUUGAGGUACUGUGUAUUUGCAGAAGUUUAAGCAGAAGGGUUUUGUUU,0.558
AAACAGAAUCAGAUGUGUAAUAUACUUGGCACAGCGAAAAAAUGGAUUUAAAAGACAAAAAUGGAGGUCCAGGUAGAUGUAAUUCACACAGACUGAAAGUGAGUUCGGGC,0.423
AAGCGCUCUCAUCUAACCUAUGUUGGGUUGUGCCACCACGUCUGUACCAGAUGUCCCAUCCGGCAUCUUUCCAUUGAAUCUUGUAGUGCAACUUGCGUAUCAUCUUCUCC,0.208
GCAAAGCUUCUAAAGACCGAAGGAAUCUUUCCCUCACCCCCACCCCCUCGCCUUGGUGAUUUCUUGUUUGAUUUUGCCUCAUGGUCAAGAAAGGAGGGGGAAAAUCCAGC,0.248
UGUUUCUUGCCUAGCAAACGAAGCUUUGCCCGCACAGCCUUGACUCGCGGCCCCAGGGCGGAGCCCAGCUGCGGGAGCUGCCGCUGCUCAGCCAGUGUCGGGAAGAGUUG,0.228
AUAAAAGAAUAUCAUCUUAAAAAACUGUUCUGGCAACUAUCUGCUACCAGAAGGUUAGAUUGAGAAAGCAGAUCCAAUAUAUGCAAGACAUUUCUUCAAACUCCAAACUA,0.27
AUGUUUUGGGUUCUGUUGCGCUAUUAAUUAAUGUAAAUUUGUUUAUACCCAGGAGAAUAUGUAUACCAUGUGUGUUUGACUAAGUUCACAAGGGAAGUUUUUGGCUCUGC,0.345
UUUCGUUUGUUAAGAAACUGGAUUCUUUUCUCCUAACCAGUGCUUAAUUUGUGUUUUUGGAUUUUCUUUCAGAAGUAGUCAAAUGUCUAUGCUGUUACAUCCAGAAUAUU,0.735

# Repeated from above (series 1):
Strand,log fluorescence
TCATGCATCTATCTTAAACTGTGCTAG,-0.132 z-score
GACGATCTTAGTTTCGAGACGTGCTAG,4.82 z-score
TTCAATTCCTGAAATCTCTTTGTGCTA,0.427 z-score
GACGGTGTCGACTATCGGGACGTGCTA,-0.589 z-score
TTAGGTATCAGTTTCGGTTAGTGCTAG,8.37 z-score
